Measured values from different studies.
Protocols differ between the studies behind these lines. Values joined by “and” are separate records of one study, mostly repeats; a detail may differ. ± gives the spread as reported. Converted amounts (≈) assume the structure as drawn.
cyp121: Mycocyclosin synthase (cyp121, Mycobacterium tuberculosis, UniProt P9WPP7)

By UniProt entry, the sequences of proteins in these tests, tags left out.
UniProt P9WPP7, whole entry: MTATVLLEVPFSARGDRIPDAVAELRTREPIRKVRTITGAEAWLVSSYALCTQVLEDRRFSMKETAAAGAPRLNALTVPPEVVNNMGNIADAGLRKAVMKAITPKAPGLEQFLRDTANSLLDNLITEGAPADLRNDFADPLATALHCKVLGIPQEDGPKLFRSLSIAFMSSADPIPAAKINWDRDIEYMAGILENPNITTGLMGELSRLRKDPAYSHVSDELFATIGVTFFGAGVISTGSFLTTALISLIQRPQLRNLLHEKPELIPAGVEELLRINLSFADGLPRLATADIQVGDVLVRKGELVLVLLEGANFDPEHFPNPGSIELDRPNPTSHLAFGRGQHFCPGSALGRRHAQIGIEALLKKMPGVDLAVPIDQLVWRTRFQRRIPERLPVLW

Cc1nc2c[nH]c(/C=C/C=C/c3ccc(N(C)C)cc3)cn-2c1=O: “brain washout time” ≤ 60 min (Balb/c mouse, brain; intravenous, dose not given).
With COc1cccc(-c2cc(NC(=O)Nc3ccc(C(F)(F)F)cc3)ccc2OC)c1 the solubility was 0.53 ± 0.06 µM (≈ 0.221 µg/mL) (water).
With Cc1cccc2c1[nH]c1c(-c3ccc(Cl)c(Cl)c3)nc(C(=O)NCCNCCO)cc12 the half-life was 5.33 h (human liver microsomes).
COc1cccc2c(N3CCC(CCP(=O)(O)O)CC3)ncnc12 has a serum concentration of ≤ 0.01 µM (mouse, serum; intravenous, 10 mg/kg single dose, within 8 h).
C[C@@H]1CN(C)CCN1c1nc(-c2ccc(F)cc2)cs1 gave a half-life of 2.45 h (mouse, brain; intraperitoneal, 10 mg/kg).
C1c2c(-c3nnn[nH]3)n[nH]c2[C@@H]2C[C@H]12 (relative stereo) — result for “locomotion and anxiety”: “no effect” (open field test; wild-type mouse; subcutaneous, 10 mg/kg).
For CCCSc1nc(N[C@@H]2C[C@H]2c2ccc(F)c(F)c2)c2nnn([C@@H]3C[C@H](O)[C@@H](O)[C@H]3O)c2n1, the plasma concentration was 3.9 ± 1.4 µM (female Wistar rat, plasma; oral, 180 mg/kg/day ticagrelor, 5 h, day 1, 2-year carcinogenicity study).
CN(CC(=O)N(Cc1ccc(C2CCCCC2)cc1)c1ccc(C(=O)NO)cc1)S(=O)(=O)c1c(F)c(F)c(F)c(F)c1F has a Cmax of 299 ± 74 ng/mL (CD-1 mouse, plasma; intraperitoneal, 20 mg/kg).
The logD of [11CH3]Nc1ccc(C(=O)C2CCN(C3Cc4ccccc4CC3O)CC2)cc1 (single isomer, unassigned) is reported as 2.6 (1-octanol/phosphate buffer; pH 7.4).
For [2H]c1c([2H])c(S(=O)(=O)N2CCC([2H])(C(=O)Nc3ccc4cc(C(=O)O)ccc4c3)CC2)c(C([2H])([2H])[2H])c([2H])c1C([2H])([2H])[2H], the intrinsic clearance was < 5.8 µL/min/mg (human liver microsomes).
O=C(NC1CCCCC1)Oc1ccc(O)c(-c2ccccc2)c1 gave a Cmax of 466 ± 96 pmol/g (mouse, brain; intraperitoneal, 1 mg/kg, single dose).
COc1cc2c(cc1OC)C(=O)C(CC1CCN(Cc3cc(C=Cc4ccc(C=Cc5ccc(N(C)C)cc5)cc4)cc(OC)c3O)CC1)C2 (centres unmarked) has a log D of 3 ± 0.1 (octanol/PBS; 250 µM).
N#Cc1ccc(S(=O)(=O)N=C(N)N2CC(c3ccccc3)C(c3ccc(Cl)cc3)=N2)cc1 (single isomer, unassigned) gave a logD of 3.8 and 3.79 (n-octanol/phosphate buffer; pH 7.4, room temperature).
COc1ccc(-c2csc(Cn3ccnc3)c2)cc1OC gave a Kd of 62.7 ± 12.4 µM (cyp121; binding).
CC(=O)N1CCC[C@@H]1C(=O)N[C@@H](C)C(=O)N[C@@H](Cc1ccccc1)B(O)O has a solubility of 100 µM (≈ 37.5 µg/mL) (nephelometry; phosphate buffer; pH 6.8).
The Kd of Fc1ccc(-c2ccc3c(c2)CCC3n2ccnc2)cc1 (centres unmarked) is reported as 7.3 ± 1.8 µM (cyp121; binding).
With O=C(NC1CCN(c2ncnc3[nH]cnc23)CC1)c1cccc(NS(=O)(=O)c2ccc(F)cc2)c1 the Tmax was 0.25 h (mouse, plasma; oral, 70 mg/kg).

Repeated from above:
Cc1nc2c[nH]c(/C=C/C=C/c3ccc(N(C)C)cc3)cn-2c1=O: “brain washout time” ≤ 60 min (Balb/c mouse, brain; intravenous, dose not given).
